Earlier results, collected from citations in different studies.
“And” joins repeats or separate records; there may be more than shown. ± gives the spread as reported. Bridge positions count the residues as written; N and C are the ends. Ends that are not written are not given here.
UniProt O88703, sequence (whole entry, looked up): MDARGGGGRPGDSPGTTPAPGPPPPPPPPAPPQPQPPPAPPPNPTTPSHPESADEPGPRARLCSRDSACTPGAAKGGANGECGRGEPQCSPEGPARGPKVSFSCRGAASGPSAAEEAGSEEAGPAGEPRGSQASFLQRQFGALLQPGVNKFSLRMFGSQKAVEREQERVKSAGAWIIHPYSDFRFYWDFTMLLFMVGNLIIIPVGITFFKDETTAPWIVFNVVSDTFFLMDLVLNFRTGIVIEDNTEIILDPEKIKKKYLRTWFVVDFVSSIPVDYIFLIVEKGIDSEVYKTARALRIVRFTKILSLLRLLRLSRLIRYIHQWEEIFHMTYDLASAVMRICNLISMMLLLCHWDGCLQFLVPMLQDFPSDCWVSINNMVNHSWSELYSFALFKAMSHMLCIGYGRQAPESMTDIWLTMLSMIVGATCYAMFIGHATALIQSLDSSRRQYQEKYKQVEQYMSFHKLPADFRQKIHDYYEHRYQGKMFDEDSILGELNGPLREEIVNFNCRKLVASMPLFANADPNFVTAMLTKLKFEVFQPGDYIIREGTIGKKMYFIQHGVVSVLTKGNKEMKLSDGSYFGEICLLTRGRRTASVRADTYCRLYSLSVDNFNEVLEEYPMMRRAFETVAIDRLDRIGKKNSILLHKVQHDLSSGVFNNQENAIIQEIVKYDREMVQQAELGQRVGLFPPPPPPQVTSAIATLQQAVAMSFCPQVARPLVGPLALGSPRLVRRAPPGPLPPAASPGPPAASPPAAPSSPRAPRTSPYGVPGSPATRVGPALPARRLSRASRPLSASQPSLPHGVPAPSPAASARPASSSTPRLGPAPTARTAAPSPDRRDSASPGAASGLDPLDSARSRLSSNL
UniProt P22001, sequence (whole entry, looked up): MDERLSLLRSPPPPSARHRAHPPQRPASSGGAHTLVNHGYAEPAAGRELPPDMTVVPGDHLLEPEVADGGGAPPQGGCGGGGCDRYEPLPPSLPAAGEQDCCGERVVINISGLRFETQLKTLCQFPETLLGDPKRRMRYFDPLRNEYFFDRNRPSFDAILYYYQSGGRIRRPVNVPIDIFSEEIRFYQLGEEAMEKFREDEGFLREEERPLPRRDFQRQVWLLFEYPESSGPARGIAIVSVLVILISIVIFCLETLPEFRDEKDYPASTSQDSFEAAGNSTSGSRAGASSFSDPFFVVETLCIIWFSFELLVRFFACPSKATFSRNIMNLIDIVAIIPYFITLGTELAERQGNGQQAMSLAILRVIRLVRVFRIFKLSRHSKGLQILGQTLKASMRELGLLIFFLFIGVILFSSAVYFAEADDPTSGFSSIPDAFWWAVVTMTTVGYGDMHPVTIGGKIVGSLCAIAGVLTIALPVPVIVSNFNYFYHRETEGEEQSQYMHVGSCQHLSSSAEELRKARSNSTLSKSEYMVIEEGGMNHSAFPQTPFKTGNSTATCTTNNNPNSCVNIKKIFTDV

`CCC(C)(C)C(=O)C(=O)N1CCCC[C@H]1C(=O)O[C@H](CCc1ccc(OC)c(OC)c1)c1cccc(OCC(=O)O)c1` has a Kd of roughly 0.02 µM (FKBP; binding).
For `N[C@@H](Cc1c[nH]cn1)C(=O)O`, the Kd was 290 ± 14 µM (EgtD (Mycolicibacterium smegmatis); binding, isothermal titration calorimetry).
`cGMP` has a Kd of < 0.4 µM and ~0.4 µM (Potassium/sodium hyperpolarization-activated cyclic nucleotide-gated channel 2, C-terminal region (Hcn2, Mus musculus, UniProt O88703); binding, isothermal titration calorimetry; tetrameric protein, high-affinity site).
For `O=C(N[C@H](CO)[C@H](O)c1ccc([N+](=O)[O-])cc1)C(Cl)Cl`, the Kd was roughly 4 µM (Escherichia coli chloramphenicol acetyltransferase III; binding, stopped-flow fluorometry; pH 7.5).
`CC[N+](CC)(CC)CC` gave a Kd of 10000 µM (Potassium voltage-gated channel subfamily A member 3 (KCNA3, Homo sapiens, UniProt P22001); binding; positive control).
`CCCC(=O)O[C@@H]1[C@@H](C)[C@@]2(O)[C@@H](C=C(CO)C[C@]3(O)C(=O)C(C)=C[C@@H]23)[C@@H]2C(C)(C)[C@]12OC(=O)CCC` has a Kd of 0.13 µM (PKC delta with C1a only; binding).
The Kd of `CC[C@H](C)[C@@H]([C@@H](CC(=O)N1CCC[C@H]1[C@H](OC)[C@@H](C)C(=O)N[C@H](C)[C@@H](O)c1ccccc1)OC)N(C)C(=O)[C@@H](NC(=O)[C@@H](NC)C(C)C)C(C)C` is reported as 0.291 µM (tubulin; binding, fluorescence polarization).
`OC[C@H]1O[C@H](O[C@H]2[C@H](O)[C@@H](O)C(O)O[C@@H]2CO)[C@H](O)[C@@H](O)[C@@H]1O` (mixture of isomers) gave a Kd of roughly 1 µM (maltose-binding protein E. coli).
The Kd of `O=P(O)(O)OP(=O)(O)OP(=O)(O)OC[C@H]1O[C@@H](n2cnc3c(NCCc4ccccc4)ncnc32)[C@H](O)[C@@H]1O` is reported as 0.3 ± 0.03 µM (CFTR NBD1; binding, SPR or ITC).
With `COc1ccc2cccc(N3CCN(CCNC(=O)c4ccc(F)cc4)CC3)c2c1` the Kd was 0.00079 µM (5-HT1A receptor; binding).
The Kd of `CHPQFC (disulfide 1-6) (disulfide)` is reported as 0.27 µM (Streptavidin (Streptomyces avidinii, UniProt P22629); binding).
For `[Mg+2]`, the Kd was 300 µM (PhoQ; binding).
With `CSCC[C@H](NC(=O)[C@H](CC(C)C)NC(=O)[C@H](Cc1ccccc1)NC(=O)[C@H](CC(=O)O)NC(=O)[C@H](Cc1ccc(O)cc1)NC(=O)[C@H](Cc1c[nH]c2ccccc12)NC(=O)[C@@H](NC(=O)[C@@H](NC(=O)[C@H](CCCNC(=N)N)NC(=O)[C@@H](N)CO)C(C)C)[C@@H](C)O)C(=O)N[C@@H](CCC(=O)O)C(=O)N[C@@H](CC(=O)O)C(=O)N[C@H](C(=O)N[C@@H](CCCCN)C(=O)N[C@@H](CO)C(=O)N[C@@H](CCCNC(=N)N)C(=O)O)[C@@H](C)O` the Kd was 5.1 µM (Gαs; binding, surface plasmon resonance).

Some of these lines once more:
With `COc1ccc2cccc(N3CCN(CCNC(=O)c4ccc(F)cc4)CC3)c2c1` the Kd was 0.00079 µM (5-HT1A receptor; binding).
